Results from different studies.
Lines come from different studies, so protocols differ.
Organism: Candida albicans

Structure (SMILES) | test | system | setting | MIC
CC[C@H](C)[C@H](NC(=O)[C@H](CCCNC(=N)N)NC(=O)[C@H](Cc1c[nH]c2ccccc12)NC(=O)[C@H](CCCNC(=N)N)NC(=O)[C@H](Cc1c[nH]c2ccccc12)NC(=O)[C@H](Cc1c[nH]c2ccccc12)NC(=O)[C@H](Cc1c[nH]c2ccccc12)NC(=O)[C@H](CCCNC(=N)N)NC(=O)[C@H](Cc1c[nH]c2ccccc12)NC(=O)[C@H](CCCNC(=N)N)NC(=O)CN)C(N)=O |  | CGMCC 2.209 | no added salts | 8 µM
C#Cc1ccc(O)c(C=NNC(=O)c2ccc(Br)cc2)c1 |  | A39 | 48 h | 0.24 µg/mL
OC(Cn1cncn1)(Cn1cncn1)c1ccc(F)cc1F |  | 56214 | 48 h, 30 °C, RPMI-1640 | 128 µM
CC[C@H](C)[C@H](NC(=O)CN)C(=O)NCC(=O)N[C@@H](C)C(=O)N[C@H](C(=O)N[C@@H](CC(C)C)C(=O)N[C@@H](CCCCN)C(=O)N[C@H](C(=O)N[C@@H](CC(C)C)C(=O)N[C@H](C(=O)N[C@H](C(=O)NCC(=O)N[C@@H](CC(C)C)C(=O)N1CCC[C@H]1C(=O)N[C@@H](C)C(=O)N[C@@H](CC(C)C)C(=O)N[C@H](C(=O)N[C@@H](CO)C(=O)N[C@@H](Cc1c[nH]c2ccccc12)C(=O)N[C@H](C(=O)N[C@@H](CCCCN)C(=O)N[C@@H](CCCNC(=N)N)C(=O)N[C@@H](CCCCN)C(=O)N[C@@H](CCCNC(=N)N)C(=O)N[C@@H](CCC(N)=O)C(=O)N[C@@H](CCC(N)=O)C(N)=O)[C@@H](C)CC)[C@@H](C)CC)[C@@H](C)O)[C@@H](C)O)C(C)C)C(C)C | broth microdilution | 56452, RPMI 1640-MOPS | 48 h, 30 °C | 4 µM
C#Cc1cccc(C=NNC(=O)c2ccc(Br)c(Br)c2)c1O |  | A39 | 48 h | 4 µg/mL
CC[C@H](C)[C@H](NC(=O)CN)C(=O)N[C@@H](CC(C)C)C(=O)N[C@@H](CC(=O)O)C(=O)N[C@@H](C)C(=O)N[C@H](C(=O)N[C@@H](CCCCN)C(=O)N[C@@H](C)C(=O)N[C@H](C(=O)N[C@@H](C)C(=O)N[C@@H](CCCCN)C(=O)N[C@@H](C)C(=O)N[C@H](C(=O)N[C@@H](CCCCN)C(=O)N[C@@H](C)C(=O)N[C@@H](CCCCN)C(=O)N[C@@H](C)C(=O)NCC(N)=O)[C@@H](C)CC)[C@@H](C)CC)[C@@H](C)CC |  | ATCC 90029, RPMI MOPS | 24 h, pH 7.0, 33 °C | 64 µg/mL
CC[C@H](C)[C@H](NC(=O)CN)C(=O)NCC(=O)N[C@@H](C)C(=O)N[C@H](C(=O)N[C@@H](CC(C)C)C(=O)N[C@@H](CCCCN)C(=O)N[C@H](C(=O)N[C@@H](CC(C)C)C(=O)N[C@H](C(=O)N[C@H](C(=O)NCC(=O)N[C@@H](CC(C)C)C(=O)N1CCC[C@H]1C(=O)N[C@@H](C)C(=O)N[C@@H](CC(C)C)C(=O)N[C@H](C(=O)N[C@@H](CO)C(=O)N[C@@H](Cc1c[nH]c2ccccc12)C(=O)N[C@H](C(=O)N[C@@H](CCCCN)C(=O)N[C@@H](CCCNC(=N)N)C(=O)N[C@@H](CCCCN)C(=O)N[C@@H](CCCNC(=N)N)C(=O)N[C@@H](CCC(N)=O)C(=O)N[C@@H](CCC(N)=O)C(N)=O)[C@@H](C)CC)[C@@H](C)CC)[C@@H](C)O)[C@@H](C)O)C(C)C)C(C)C | broth microdilution | SP 3903, RPMI-1640 | 48 h, 30 °C | 4 µM
C[C@H](NC(=O)[C@H](CCCNC(=N)N)NC(=O)[C@H](Cc1c[nH]c2ccccc12)NC(=O)[C@H](CCCNC(=N)N)NC(=O)[C@H](Cc1c[nH]c2ccccc12)NC(=O)[C@H](Cc1c[nH]c2ccccc12)NC(=O)[C@H](Cc1c[nH]c2ccccc12)NC(=O)[C@H](CCCNC(=N)N)NC(=O)[C@H](Cc1c[nH]c2ccccc12)NC(=O)[C@H](CCCNC(=N)N)NC(=O)CN)C(N)=O | broth microdilution | CGMCC 2.209, RPMI 1640-MOPS | 48 h, 30 °C, with: FeCl3 4 µM | 8 µM
CC[C@H](C)[C@H](NC(=O)[C@H](C)NC(=O)[C@H](CCCCN)NC(=O)[C@@H](N)CCCNC(=N)N)C(=O)N[C@@H](CCCNC(=N)N)C(=O)N[C@@H](Cc1c[nH]c2ccccc12)C(=O)N[C@@H](Cc1c[nH]c2ccccc12)C(N)=O |  |  |  | 64 µg/mL
CC(C)C[C@H](NC(=O)[C@H](Cc1c[nH]c2ccccc12)NC(=O)[C@H](CC(C)C)NC(=O)[C@@H](NC(=O)[C@H](CC(C)C)NC(=O)[C@H](CCCNC(=N)N)NC(=O)[C@@H](N)CCCNC(=N)N)[C@@H](C)O)C(=O)N[C@H](C(=O)N[C@@H](CC(C)C)C(=O)N[C@@H](CCCNC(=N)N)C(=O)N[C@@H](CCCNC(=N)N)C(N)=O)[C@@H](C)O |  | CGMCC 2.209, RPMI 1640 MOPS-buffered | 48 h, 37 °C, tested up to 128 µM | 2 µM

Excerpt of the above:
Structure (SMILES) | test | system | setting | MIC
C[C@H](NC(=O)[C@H](CCCNC(=N)N)NC(=O)[C@H](Cc1c[nH]c2ccccc12)NC(=O)[C@H](CCCNC(=N)N)NC(=O)[C@H](Cc1c[nH]c2ccccc12)NC(=O)[C@H](Cc1c[nH]c2ccccc12)NC(=O)[C@H](Cc1c[nH]c2ccccc12)NC(=O)[C@H](CCCNC(=N)N)NC(=O)[C@H](Cc1c[nH]c2ccccc12)NC(=O)[C@H](CCCNC(=N)N)NC(=O)CN)C(N)=O | broth microdilution | CGMCC 2.209, RPMI 1640-MOPS | 48 h, 30 °C, with: FeCl3 4 µM | 8 µM
